Results from different studies.
Each numbered part is a random draw from the data of one study; scales do not carry over between parts. Substitutions count along the parent as printed.

Study 1
Target: Max-binding protein MNT, bHLH-zipper, MAX partner unstated (MNT, Homo sapiens, UniProt Q99583, residues 220-300)
Technique: protein-binding microarray
Form: double-stranded DNA, one strand shown
Sample: in vitro
Concentration: not given
Notes: k-mer, scored over probes, only values ≥0.25
Direction: higher = stronger binding
Target sequence (chain): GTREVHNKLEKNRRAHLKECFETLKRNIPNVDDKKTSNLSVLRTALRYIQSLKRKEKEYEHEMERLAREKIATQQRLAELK
Strand	E-score
ACGCGTTG	0.261
CCACGCAG	0.276
ATGGGGGC	0.302
GCGCATGA	0.372
ACGTGCCG	0.433
AGCATGTG	0.466
GCCCCTCC	0.293
CAATGTGA	0.279
GTGCGTGA	0.301
ATGCGTTC	0.315
ATGCGCAG	0.289
CTCGTGAC	0.412
ATGCTAGC	0.263
AACCAACG	0.297
ATGCGGCC	0.265
AGCACGTG	0.497
ATGCGCCG	0.307
ACGCGAGC	0.297
ACGTTGCA	0.262
AGAACGTG	0.392

Study 2
Target: RNA binding protein fox-1 homolog 2, RRM domain, GST-SBP tag (RBFOX2, Homo sapiens, UniProt O43251-10, residues 100-194)
Technique: RNA Bind-n-Seq
Form: RNA
Sample: in vitro
Concentration: 365 nM
Notes: natural RNA segment, single round, ends assumed
Reference: no-protein control
Direction: higher = stronger binding
Constant ends, left off below: GGGAGUUCUACAGUCCGACGAUC … UGGAAUUCUCGGGUGCCAA
Residues (chain): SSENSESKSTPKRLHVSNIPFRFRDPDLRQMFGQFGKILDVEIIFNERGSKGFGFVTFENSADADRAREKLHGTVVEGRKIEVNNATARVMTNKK
Strand	RBNS enrichment (R)
UUGAUUCUUAACCCCAUGGACUCCUUUCCCUUUCUUCUCUGAAAAAAACUAAUUUAAAUUUGCUUUUCUUUUUUUUAACUGAGUUGAAUUGAGAUUGAUGUGUUUUCACU	0.541
CUCCCUUAAGAGUAUCACUGUUCUGAAGCUAAAAUGCUUCAGUCUCAAAUUUAGGGGCAAAGUGGAGACUGGAAGAAUUCUCCUUUCAGAAGAACCACGAGGCUCUGGCU	0.241
AUGGACUUGAGGUCCCAGGAGAUUUCAUUUUAUUCACCCUGGUCAGAUACAAUAAAGGCUAUGAGUAUAAAUACAUAACUUCCUAACCAGGUGUAGGGCAUGUUCAUGAA	16.6
GUGUGUGUGUUUAUUUAAGUUACUUUUCUUCCUUCUCCCCUUUUCUUUUUACCCCUCCCCCUUCUGCCAUGUAACUGGAGGAUGUGCUAUGAGGUUGCAAACAGCUGGAC	2.44
UUUUAAUUGCCCUUGGUAUCCUGAUAUUCUCAUUUUCAAGGUGAGGUAAAGACAGGGUUUCCUUACUUAACGGAUUUGAGCGCUUCUGUUCUCCAAACACAAUGGAAUUU	0.31
CCUUGGGGAUCUGGGAGCUGAGCACUUGUCUAUACUUGUUCCUAAUUUUCCAAGUAUUUCUCUUGAAACUGCCAGUGCCUGAACUGUUGGGGCCAGGAUUUUCCCUGGUC	0.371
UGACCAAAAGCUGUCAAGUCCUUAAUGUUUAGAAACUCCUUAAAAUGUAUAGUAUUUUAGAACAACAACAACAAAACUCAAUAAACAGUUGAUCUUGUGUGUUUGACAGU	0.597
CACGUGCCCUCCCUGCCACCCUCCGUCUAGAGCAAGCGGAUGCCCCCCAGCCUGCAGCAGAAGCCUCCACAGUGAGAACUGGACCCAAAGGUAGUGGGGGCCGGUGUGGG	0.984

Study 3
Target: Ras GTPase-activating protein-binding protein 1, RRM domain (G3BP1, Homo sapiens, UniProt Q13283)
Sequence of UniProt Q13283 (whole entry, looked up): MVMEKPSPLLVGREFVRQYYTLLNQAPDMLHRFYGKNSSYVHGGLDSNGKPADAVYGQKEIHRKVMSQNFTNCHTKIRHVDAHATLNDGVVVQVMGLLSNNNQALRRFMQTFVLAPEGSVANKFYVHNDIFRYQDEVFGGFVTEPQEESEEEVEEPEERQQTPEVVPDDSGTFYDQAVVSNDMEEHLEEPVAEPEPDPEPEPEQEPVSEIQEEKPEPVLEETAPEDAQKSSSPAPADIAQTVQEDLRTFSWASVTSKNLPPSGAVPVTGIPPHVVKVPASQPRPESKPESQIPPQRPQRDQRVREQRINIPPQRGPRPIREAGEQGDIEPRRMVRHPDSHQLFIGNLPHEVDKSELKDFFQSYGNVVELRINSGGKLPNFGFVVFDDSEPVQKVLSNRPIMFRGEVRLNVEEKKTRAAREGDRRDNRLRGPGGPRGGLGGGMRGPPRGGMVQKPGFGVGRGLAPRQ
Technique: RNA Bind-n-Seq
Form: RNA
Sample: in vitro
Concentration: 1 µM
Notes: whole 134-nt RNA, ends assumed
Added: 150 mM KCl
Reference: input library
Direction: higher = stronger binding
Constant ends, left off below: GGGAGUUCUACAGUCCGACGAUC … UGGAAUUCUCGGGUGUCAAGG
Strand	log2 enrichment
ACCAUGCAGGUGGGCAUCUUUGGGAAGUGGGGCAAGGGGGGGAUAGGGAGGGGGGUAACACUUUGGGAACAGGAGGUCCCAGGUCGUUUC	0.977
CAUAGACAACACGCACCCACACAGACACAGAGGGAAGGGGUUGGGAUGGGGACAGGGUGCACAGCAGGGCGGGGUAGGACCCCAGCCCCU	-0.177
ACCAUGCAGGUGGGCAUCUUUGGGAAGUGGGGCAAGGGGGGGAUAGGGAGGGGGGUAACACUUUGGGAACAGGUGGUCCCAGGUCGUUGC	1.28
CAAGUCCUGUGCUACACAUCGUAUGUACCGAAUCGGGGCCGGGGCCGGGGCCGGGAAAGUAUUAUGUUACGCCGUUCGGAUCUGCACUUC	-1.68
GCAGGAAGUAAAAACAAAUGGAAAUGCUUCGGAUAGUGGCAGGGGUGGGGUUUGCUAAGGAAAGGGUGGGAUGGGAGUGGGUAAAGAGUU	1.55
UCCUCAAGUCCUGUGCUACACAUCGUAUGUACCGAAUCGGCGGGGCGGCGGGAAAGUAUUAUGUUACGCCGUUCGGAUCUGCACUUCCAG	-0.136
CACAGACAACACGCACCCACACAGACACAGAGGGAAGGGGUUGGGAUGGGGACAGGGUGCACAGCAGGGCGGGGUAGGACCUCAGCCCCU	-0.358
CAAGUCCUGUGCUACACAUCGUAUGUACCGAAUCGGGUGGGUUUUUUUGGGUGGGAAAGUAUUAUGUUACGCCGUUCGGAUCUGCACUUC	0.531
AAGUCCUGUGCUACACAUCGUAUGUACCGAAUCAAAUUUUUAAAUUUAAAUUUAAAAAAGUAUUAUGUUACGCCGUUCGGAUCUGCACUU	-0.575

Study 4
Target: CCNE1, cyclin fold, Cln2 fusion (human)
Technique: yeast growth competition, sequencing
Sample: yeast
Notes: strong parent motif
Reference: not given
Direction: higher = stronger binding
Starting sequence: RBL1 docking peptide (human); GSAKRRLFGEDPP; partner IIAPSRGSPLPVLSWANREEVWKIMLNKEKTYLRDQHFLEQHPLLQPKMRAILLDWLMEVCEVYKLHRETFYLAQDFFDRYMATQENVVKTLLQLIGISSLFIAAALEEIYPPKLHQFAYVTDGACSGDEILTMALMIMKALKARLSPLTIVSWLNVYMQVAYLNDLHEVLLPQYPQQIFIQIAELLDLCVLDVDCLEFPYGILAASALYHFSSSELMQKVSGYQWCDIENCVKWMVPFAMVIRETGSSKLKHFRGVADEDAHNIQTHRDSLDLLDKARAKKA
Variant	normalised enrichment score
S2E	5.23
P12Y	6.72
L7F	0.0513
E10M	4.69
R6Q	3.98
R5L	0.76
R5S	-0.0853
S2H	6.65
R6S	2.19
E10S	5.73
F8Y	0.879
G1I	7.88
G1T	6.98
A3M	1.19
D11M	4.31
P13G	5.76
S2N	6.36
S2I	3.68
S2D	5.11
E10N	5.85

For quick reference, copied from above (study 2):
Strand	RBNS enrichment (R)
UUGAUUCUUAACCCCAUGGACUCCUUUCCCUUUCUUCUCUGAAAAAAACUAAUUUAAAUUUGCUUUUCUUUUUUUUAACUGAGUUGAAUUGAGAUUGAUGUGUUUUCACU	0.541
CUCCCUUAAGAGUAUCACUGUUCUGAAGCUAAAAUGCUUCAGUCUCAAAUUUAGGGGCAAAGUGGAGACUGGAAGAAUUCUCCUUUCAGAAGAACCACGAGGCUCUGGCU	0.241
AUGGACUUGAGGUCCCAGGAGAUUUCAUUUUAUUCACCCUGGUCAGAUACAAUAAAGGCUAUGAGUAUAAAUACAUAACUUCCUAACCAGGUGUAGGGCAUGUUCAUGAA	16.6
GUGUGUGUGUUUAUUUAAGUUACUUUUCUUCCUUCUCCCCUUUUCUUUUUACCCCUCCCCCUUCUGCCAUGUAACUGGAGGAUGUGCUAUGAGGUUGCAAACAGCUGGAC	2.44
UUUUAAUUGCCCUUGGUAUCCUGAUAUUCUCAUUUUCAAGGUGAGGUAAAGACAGGGUUUCCUUACUUAACGGAUUUGAGCGCUUCUGUUCUCCAAACACAAUGGAAUUU	0.31
CCUUGGGGAUCUGGGAGCUGAGCACUUGUCUAUACUUGUUCCUAAUUUUCCAAGUAUUUCUCUUGAAACUGCCAGUGCCUGAACUGUUGGGGCCAGGAUUUUCCCUGGUC	0.371
UGACCAAAAGCUGUCAAGUCCUUAAUGUUUAGAAACUCCUUAAAAUGUAUAGUAUUUUAGAACAACAACAACAAAACUCAAUAAACAGUUGAUCUUGUGUGUUUGACAGU	0.597
CACGUGCCCUCCCUGCCACCCUCCGUCUAGAGCAAGCGGAUGCCCCCCAGCCUGCAGCAGAAGCCUCCACAGUGAGAACUGGACCCAAAGGUAGUGGGGGCCGGUGUGGG	0.984
